Measured values of several laboratories.
Numbered parts are unrelated; each lists some results of a single study. Substitutions count along the parent as printed.

Set 1
Target: Interferon regulatory factor 3, full length, phosphomimetic (IRF3, Homo sapiens, UniProt Q14653, residues 1-427, S386D/S396D/S398D/S402D/T404D/S405D)
Method: protein-binding microarray
Molecule type: double-stranded DNA, one strand shown
Sample: in vitro
Tested at: 2540 nM top
Setting: 60-bp whole probe
With: salmon DNA 0.4 mg/ml
Reference: random background probes
Direction: higher = stronger binding
All sequences stand within: GCCTAGCAC … GTCTTGATTCGCTTGACGCTGCTG
Construct (chain): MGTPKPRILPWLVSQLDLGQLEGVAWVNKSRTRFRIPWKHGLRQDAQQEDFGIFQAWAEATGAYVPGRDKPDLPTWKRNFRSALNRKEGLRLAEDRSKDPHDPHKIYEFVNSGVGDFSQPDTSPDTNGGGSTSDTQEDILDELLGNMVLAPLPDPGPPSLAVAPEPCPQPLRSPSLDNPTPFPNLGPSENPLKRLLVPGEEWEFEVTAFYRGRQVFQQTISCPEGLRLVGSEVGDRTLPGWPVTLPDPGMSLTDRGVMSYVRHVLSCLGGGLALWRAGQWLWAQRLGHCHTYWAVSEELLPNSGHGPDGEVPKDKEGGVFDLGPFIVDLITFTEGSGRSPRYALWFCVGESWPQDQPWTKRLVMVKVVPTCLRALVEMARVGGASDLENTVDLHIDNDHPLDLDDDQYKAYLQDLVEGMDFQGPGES
Oligonucleotide	fitted relative affinity [z-score]
TTAGGACTGGGTACTGGGTTAGTGCTA	-0.815
TGGCCTCTAGGTTTTCTGGAGTGCTAG	-1.41
TCACACATATAATTTTGTACTGTGCTA	0.0483
GAGATTTTCATTATTGCTTCGTGCTAG	1.41
TTAGGTTTTGGTCTCGGTTAGTGCTAG	3.05
GACGGTATAGGGTATCGGGACGTGCTA	-0.113
GTCGGTTTCGGTTCCGGGACGTGCTAG	10.9
TTAGGTCTCGGTATCGGTTTGTGCTAG	3.93
GACGGTCTCGTTATCGGGACGTGCTAG	1.1
TTCTCTATTGCTTTCTCTTTGTGCTAG	1.91
GACGATATCAGGACTGGAGACGTGCTA	0.445

Set 2
Target: CCNB1, cyclin fold, Cln2 fusion (human)
Method: yeast growth competition, sequencing
Sample: yeast
Setting: weak parent motif
Reference: not given
Direction: higher = stronger binding
Starting sequence: WEE1 docking peptide (human); HKTFRKLRLFDTP
Substitution	normalised enrichment score
T3W	-0.276
D11Q	2.59
K6F	-1.51
P13I	0.125
T12C	-0.156
F4H	1.09
R5T	-0.139
F4L	0.797
R5E	1.88
K6S	0.32
P13H	0.133
F10P	1.23
K2S	0.301
K2I	-0.124
R5K	0.0313
T3L	0.0708
L7V	0.137

Set 3
Target: Sal-like protein 4, full length isoform A (SALL4, Homo sapiens, UniProt Q9UJQ4, residues 1-1053)
UniProt Q9UJQ4, sequence (whole entry, looked up): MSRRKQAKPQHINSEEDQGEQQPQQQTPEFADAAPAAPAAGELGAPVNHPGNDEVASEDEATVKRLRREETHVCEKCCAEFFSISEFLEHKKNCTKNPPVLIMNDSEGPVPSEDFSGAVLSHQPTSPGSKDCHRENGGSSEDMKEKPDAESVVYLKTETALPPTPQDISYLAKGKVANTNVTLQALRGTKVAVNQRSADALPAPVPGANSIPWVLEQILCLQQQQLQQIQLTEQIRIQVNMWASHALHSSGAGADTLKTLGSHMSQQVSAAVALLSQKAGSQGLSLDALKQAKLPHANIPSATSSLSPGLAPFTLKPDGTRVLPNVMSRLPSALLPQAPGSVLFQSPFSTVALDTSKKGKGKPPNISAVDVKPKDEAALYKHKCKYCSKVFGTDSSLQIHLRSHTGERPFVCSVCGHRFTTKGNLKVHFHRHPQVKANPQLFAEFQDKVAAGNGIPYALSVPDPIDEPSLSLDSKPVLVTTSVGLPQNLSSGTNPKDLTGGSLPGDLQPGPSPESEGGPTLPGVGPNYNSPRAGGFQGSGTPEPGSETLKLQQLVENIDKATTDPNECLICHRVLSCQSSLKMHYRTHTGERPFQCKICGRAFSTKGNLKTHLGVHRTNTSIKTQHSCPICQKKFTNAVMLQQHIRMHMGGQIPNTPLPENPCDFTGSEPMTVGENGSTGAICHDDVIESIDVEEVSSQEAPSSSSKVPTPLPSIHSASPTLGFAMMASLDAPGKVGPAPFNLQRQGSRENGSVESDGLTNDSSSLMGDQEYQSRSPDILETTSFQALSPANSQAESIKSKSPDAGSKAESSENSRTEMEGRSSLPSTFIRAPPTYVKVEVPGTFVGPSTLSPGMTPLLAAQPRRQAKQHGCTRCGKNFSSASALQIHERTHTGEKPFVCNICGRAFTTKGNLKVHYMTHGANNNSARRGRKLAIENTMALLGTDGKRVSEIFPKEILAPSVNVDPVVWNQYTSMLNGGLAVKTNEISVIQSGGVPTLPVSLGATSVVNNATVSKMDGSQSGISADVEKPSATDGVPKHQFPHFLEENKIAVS
Method: universal PBM
Molecule type: double-stranded DNA, one strand shown
Sample: in vitro
Tested at: 600 nM
Setting: 8-mer, flanks averaged, mean of replicates
Direction: higher = stronger binding
Oligonucleotide	E-score
ATTGAAAC	0.27
CTATAGGA	0.189
CCGCAGAA	-0.0834
GGATCGCA	-0.112
CAATACTA	0.113
AGTGGATC	-0.106
ATGCCTAG	0.0513
CTCGTCAC	0.0329
GCGAATTA	0.24
CGTGTGAA	-0.0272
CGACGAAC	-0.133
ATGAAATC	0.297
ATAAAAAG	0.312
AAATACCG	0.0905
TGCCGAAA	-0.11
GCGTGGCC	-0.402
AAGTTTCT	0.196
ACATTAGG	0.122
CCCCTCAA	-0.153

Other studies, line by line
Molecule	target	test	test system	conditions	scale	quantity	value
PhoQ, residues 284 288 289 292 302 303 TASMAF	PhoP, residues 12 14 15 18 19 SFCSL (Escherichia coli, UniProt P23836)	Sort-seq, refers to: YFP reporter	E. coli	PhoQ-PhoP variant library, with: 10 µM Mg2+	reference: high Mg2+ state, higher = stronger signaling	fold induction	28.9

Excerpt of the above (set 2):
Substitution	normalised enrichment score
K6S	0.32
P13H	0.133
F10P	1.23
K2S	0.301
K2I	-0.124
R5K	0.0313
T3L	0.0708
